Results gathered from unrelated publications.
Each numbered part is a random draw from the data of one study; scales do not carry over between parts. Changes are numbered by the printed parent chain.
Chain of UniProt P51812 (whole entry, looked up): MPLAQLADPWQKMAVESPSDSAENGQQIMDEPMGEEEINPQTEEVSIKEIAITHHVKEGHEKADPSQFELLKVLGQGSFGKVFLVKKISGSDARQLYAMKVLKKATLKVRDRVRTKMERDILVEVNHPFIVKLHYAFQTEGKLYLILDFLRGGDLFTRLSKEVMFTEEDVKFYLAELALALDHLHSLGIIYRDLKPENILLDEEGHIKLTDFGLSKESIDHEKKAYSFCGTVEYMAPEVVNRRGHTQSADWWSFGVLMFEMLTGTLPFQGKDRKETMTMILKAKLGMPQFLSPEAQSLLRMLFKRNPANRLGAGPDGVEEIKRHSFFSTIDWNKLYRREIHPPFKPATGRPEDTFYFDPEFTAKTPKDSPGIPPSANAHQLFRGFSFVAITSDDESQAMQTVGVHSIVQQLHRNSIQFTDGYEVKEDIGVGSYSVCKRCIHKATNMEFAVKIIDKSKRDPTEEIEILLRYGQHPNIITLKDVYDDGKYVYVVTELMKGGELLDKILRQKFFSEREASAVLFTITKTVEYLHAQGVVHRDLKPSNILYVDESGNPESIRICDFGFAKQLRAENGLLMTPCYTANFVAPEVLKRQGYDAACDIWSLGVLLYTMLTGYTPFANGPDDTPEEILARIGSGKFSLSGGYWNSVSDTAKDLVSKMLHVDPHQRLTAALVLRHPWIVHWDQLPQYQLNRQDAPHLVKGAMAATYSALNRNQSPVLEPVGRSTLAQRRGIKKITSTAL
Chain of UniProt P08069 (whole entry, looked up): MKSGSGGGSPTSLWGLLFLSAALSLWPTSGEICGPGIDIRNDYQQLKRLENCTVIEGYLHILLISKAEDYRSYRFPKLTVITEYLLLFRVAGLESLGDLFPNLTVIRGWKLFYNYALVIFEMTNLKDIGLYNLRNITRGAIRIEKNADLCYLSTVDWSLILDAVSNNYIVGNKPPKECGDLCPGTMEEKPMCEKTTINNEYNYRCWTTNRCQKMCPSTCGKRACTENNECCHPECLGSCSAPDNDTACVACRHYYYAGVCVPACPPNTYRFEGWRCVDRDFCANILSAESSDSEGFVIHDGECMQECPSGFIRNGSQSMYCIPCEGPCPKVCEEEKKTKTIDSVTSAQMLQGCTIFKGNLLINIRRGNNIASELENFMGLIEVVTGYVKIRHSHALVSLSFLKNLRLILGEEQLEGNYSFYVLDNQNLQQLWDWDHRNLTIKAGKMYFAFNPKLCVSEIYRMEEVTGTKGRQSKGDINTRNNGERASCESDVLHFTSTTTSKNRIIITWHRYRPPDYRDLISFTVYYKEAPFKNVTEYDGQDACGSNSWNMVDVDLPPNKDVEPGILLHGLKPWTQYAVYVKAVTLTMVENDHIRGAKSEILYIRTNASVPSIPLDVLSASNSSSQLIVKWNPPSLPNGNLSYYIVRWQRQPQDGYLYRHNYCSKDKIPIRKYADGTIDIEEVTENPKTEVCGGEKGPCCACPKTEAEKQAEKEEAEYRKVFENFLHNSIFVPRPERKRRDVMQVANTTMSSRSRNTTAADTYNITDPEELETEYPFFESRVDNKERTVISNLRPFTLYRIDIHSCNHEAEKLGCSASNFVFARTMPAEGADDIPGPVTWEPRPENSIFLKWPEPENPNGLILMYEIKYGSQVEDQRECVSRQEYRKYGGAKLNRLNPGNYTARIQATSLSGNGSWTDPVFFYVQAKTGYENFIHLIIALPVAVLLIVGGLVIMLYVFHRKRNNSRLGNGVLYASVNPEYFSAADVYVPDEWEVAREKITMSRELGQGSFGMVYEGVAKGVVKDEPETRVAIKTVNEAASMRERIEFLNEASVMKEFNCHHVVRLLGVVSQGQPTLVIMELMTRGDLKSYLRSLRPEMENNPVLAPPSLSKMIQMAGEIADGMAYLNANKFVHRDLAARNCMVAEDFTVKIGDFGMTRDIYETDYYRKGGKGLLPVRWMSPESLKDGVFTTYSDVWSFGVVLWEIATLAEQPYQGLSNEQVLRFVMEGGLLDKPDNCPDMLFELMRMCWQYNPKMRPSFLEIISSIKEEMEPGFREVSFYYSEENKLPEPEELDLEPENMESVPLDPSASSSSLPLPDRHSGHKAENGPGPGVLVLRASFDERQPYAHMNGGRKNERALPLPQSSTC
Chain of UniProt P23458 (whole entry, looked up): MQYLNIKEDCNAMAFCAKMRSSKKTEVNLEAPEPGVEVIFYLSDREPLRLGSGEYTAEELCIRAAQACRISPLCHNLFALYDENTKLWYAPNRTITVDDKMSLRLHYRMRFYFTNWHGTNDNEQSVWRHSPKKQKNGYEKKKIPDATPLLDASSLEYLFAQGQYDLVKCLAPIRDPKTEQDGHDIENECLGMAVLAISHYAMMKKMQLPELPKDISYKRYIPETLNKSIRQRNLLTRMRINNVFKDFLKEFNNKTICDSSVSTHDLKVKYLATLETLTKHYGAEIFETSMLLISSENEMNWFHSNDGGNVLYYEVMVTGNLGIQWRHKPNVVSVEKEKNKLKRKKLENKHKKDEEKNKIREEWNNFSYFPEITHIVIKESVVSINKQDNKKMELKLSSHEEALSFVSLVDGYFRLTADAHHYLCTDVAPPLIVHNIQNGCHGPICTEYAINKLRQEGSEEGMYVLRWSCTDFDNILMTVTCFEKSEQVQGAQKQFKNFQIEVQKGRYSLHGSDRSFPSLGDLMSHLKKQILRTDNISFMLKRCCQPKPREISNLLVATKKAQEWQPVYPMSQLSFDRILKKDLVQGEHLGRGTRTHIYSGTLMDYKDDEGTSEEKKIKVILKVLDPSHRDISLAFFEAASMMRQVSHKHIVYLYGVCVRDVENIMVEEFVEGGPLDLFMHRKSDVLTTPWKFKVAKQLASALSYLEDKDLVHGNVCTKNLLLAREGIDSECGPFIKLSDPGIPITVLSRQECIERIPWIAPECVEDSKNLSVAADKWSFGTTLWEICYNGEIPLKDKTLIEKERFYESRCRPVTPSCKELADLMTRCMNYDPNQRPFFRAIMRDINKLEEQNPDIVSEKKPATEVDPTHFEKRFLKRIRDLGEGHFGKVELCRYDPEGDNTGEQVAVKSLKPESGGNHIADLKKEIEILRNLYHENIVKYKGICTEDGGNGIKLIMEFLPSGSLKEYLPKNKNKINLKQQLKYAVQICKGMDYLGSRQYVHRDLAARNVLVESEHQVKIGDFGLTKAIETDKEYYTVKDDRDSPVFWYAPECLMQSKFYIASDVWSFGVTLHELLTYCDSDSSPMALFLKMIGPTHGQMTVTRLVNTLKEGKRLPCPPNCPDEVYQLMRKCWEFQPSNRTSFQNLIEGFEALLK
Chain of UniProt O95819 (whole entry, looked up): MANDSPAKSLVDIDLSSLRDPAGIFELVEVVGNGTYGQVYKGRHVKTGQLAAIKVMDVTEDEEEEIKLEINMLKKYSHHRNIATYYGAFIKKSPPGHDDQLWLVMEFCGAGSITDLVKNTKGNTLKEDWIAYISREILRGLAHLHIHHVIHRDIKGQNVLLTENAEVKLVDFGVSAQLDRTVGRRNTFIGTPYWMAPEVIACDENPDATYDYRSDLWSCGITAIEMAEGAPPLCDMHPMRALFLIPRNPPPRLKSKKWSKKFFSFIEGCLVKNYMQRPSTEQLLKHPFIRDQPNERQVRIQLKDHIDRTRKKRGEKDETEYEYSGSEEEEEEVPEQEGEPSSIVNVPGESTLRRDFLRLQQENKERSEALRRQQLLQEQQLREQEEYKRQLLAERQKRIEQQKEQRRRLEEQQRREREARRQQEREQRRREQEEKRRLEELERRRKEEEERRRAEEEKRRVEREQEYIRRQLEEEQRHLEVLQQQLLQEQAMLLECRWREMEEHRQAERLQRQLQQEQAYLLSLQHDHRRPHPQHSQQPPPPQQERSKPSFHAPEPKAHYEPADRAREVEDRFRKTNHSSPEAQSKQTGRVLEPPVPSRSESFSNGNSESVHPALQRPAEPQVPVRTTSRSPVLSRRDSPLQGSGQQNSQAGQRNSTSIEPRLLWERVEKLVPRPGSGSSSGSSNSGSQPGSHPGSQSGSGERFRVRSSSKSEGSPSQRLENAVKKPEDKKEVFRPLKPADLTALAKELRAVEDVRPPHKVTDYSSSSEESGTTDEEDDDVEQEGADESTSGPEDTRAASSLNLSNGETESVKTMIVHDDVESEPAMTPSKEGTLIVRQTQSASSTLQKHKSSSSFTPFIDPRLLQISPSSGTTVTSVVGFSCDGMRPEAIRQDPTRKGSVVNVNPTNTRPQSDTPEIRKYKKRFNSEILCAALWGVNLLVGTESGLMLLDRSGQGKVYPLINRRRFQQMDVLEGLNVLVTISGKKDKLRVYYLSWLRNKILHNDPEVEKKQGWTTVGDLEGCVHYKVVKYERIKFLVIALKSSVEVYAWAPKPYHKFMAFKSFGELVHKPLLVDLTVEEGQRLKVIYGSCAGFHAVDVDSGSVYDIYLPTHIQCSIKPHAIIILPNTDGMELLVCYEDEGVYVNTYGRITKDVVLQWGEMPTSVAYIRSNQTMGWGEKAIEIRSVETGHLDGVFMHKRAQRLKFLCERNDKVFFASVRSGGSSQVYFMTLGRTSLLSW
Chain of UniProt Q13177 (whole entry, looked up): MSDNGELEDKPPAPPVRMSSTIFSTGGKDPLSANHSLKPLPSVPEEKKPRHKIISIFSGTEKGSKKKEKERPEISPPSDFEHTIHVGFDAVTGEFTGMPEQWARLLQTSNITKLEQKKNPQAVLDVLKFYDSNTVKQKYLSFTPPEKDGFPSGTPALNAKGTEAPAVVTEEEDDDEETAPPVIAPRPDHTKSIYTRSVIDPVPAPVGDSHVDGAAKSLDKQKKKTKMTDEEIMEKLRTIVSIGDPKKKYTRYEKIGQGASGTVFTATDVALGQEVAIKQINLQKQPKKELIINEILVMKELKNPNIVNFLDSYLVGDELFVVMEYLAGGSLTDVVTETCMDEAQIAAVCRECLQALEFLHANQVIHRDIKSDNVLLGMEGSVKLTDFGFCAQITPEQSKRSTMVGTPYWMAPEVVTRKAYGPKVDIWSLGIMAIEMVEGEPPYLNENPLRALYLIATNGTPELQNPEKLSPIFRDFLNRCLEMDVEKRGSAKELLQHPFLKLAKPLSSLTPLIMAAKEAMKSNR

Series 1 — target: CCND3, cyclin fold, Cln2 fusion (human); technique: yeast growth competition, sequencing; matrix: yeast; notes: weak parent motif; relative to: not given; direction: higher = stronger binding
Starting sequence: CDC6 docking peptide (human); TLKGRRLVFDNQL
Change	normalised enrichment score
TLKGRRHVFDNQL [L7H]	0.0372
TLKGRKLVFDNQL [R6K]	0.0758
TLKGRRLVFDYQL [N11Y]	0.178
TLKGRRLVFDRQL [N11R]	0.158
TLKGRRLVFDEQL [N11E]	0.141
TLKGRRLVFDNPL [Q12P]	0.0809
TLKGRRLNFDNQL [V8N]	0.224
TLKGRSLVFDNQL [R6S]	-0.0213

Series 2 — SMILES: O=c1nc(-c2ccccn2)sc2ccccc12; technique: competition with immobilised ligand; concentration: 1 µM
target	assay	remaining binding [%]
MAP4K4 (Homo sapiens, UniProt O95819)	binding	100
Ribosomal protein S6 kinase alpha-3, N-terminal kinase domain (RPS6KA3, Homo sapiens, UniProt P51812)	binding	71
MAP3K19 (Homo sapiens, UniProt Q56UN5)	binding	86
CILK1 (Homo sapiens, UniProt Q9UPZ9)	binding	83
STK26 (Homo sapiens, UniProt Q9P289)	binding	100
PIK3CD (Homo sapiens, UniProt O00329)	cell-free assay	54
Aurora kinase B (AURKB, Homo sapiens, UniProt Q96GD4)	binding	82
PIP5K1C (Homo sapiens, UniProt O60331)	binding	84
CAMKK2 (Homo sapiens, UniProt Q96RR4)	binding	90
ULK1 (Homo sapiens, UniProt O75385)	binding	100
NTRK2 (Homo sapiens, UniProt Q16620)	cell-free assay	96
TNNI3K (Homo sapiens, UniProt Q59H18)	binding	87
PAK2 (Homo sapiens, UniProt Q13177)	cell-free assay	100
Ribosomal protein S6 kinase alpha-6, C-terminal kinase domain (RPS6KA6, Homo sapiens, UniProt Q9UK32)	binding	92
KIT (Homo sapiens, UniProt P10721, T670I/V559D)	binding	83
EGFR (Homo sapiens, UniProt P00533, del752-759)	cell-free assay	84
CSNK1A1 (Homo sapiens, UniProt P48729)	cell-free assay	76

Series 3 — technique: protein-binding microarray; molecule type: double-stranded DNA, one strand shown; matrix: in vitro; concentration: 2200 nM top; notes: 60-bp whole probe; with: salmon DNA 0.4 mg/ml; relative to: random background probes; direction: higher = stronger binding; shared flanks, not repeated: GCCTAGCAC … GTCTTGATTCGCTTGACGCTGCTG
Target: Interferon regulatory factor 7, full length, phosphomimetic (IRF7, Homo sapiens, UniProt Q92985, residues 1-503, S471D/S472D/S475D/S476D/S477D/S483D/S484D/S487D)
Construct (chain): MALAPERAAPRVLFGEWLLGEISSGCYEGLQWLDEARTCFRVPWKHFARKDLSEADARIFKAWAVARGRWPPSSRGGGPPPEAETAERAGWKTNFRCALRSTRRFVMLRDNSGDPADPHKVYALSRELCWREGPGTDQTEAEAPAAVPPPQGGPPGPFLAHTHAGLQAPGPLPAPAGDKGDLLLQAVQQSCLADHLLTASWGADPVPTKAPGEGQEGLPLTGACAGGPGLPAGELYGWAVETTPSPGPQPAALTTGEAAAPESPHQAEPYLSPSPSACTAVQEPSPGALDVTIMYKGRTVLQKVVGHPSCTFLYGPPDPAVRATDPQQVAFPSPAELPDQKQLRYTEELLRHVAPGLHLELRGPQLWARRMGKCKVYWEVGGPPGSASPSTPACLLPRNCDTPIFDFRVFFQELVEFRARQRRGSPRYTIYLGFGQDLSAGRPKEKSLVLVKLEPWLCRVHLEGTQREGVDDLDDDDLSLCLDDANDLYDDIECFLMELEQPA
Oligonucleotide	fitted relative affinity [z-score]
TTAGATTTCAGCATCGATTAGTGCTAG	0.238
TACCCTTTGAAAGTTGTTTTAGTGCTA	0.594
GACGAACTTAGTTTCGAGACGTGCTAG	3.74
TTAGGTATCGGTCCCGGTTAGTGCTAG	0.25
TTAGGTTTCCTTTTCCTTTAGTGCTAG	7.22
TCACATCTCGGAGATCTCACTGTGCTA	1.18
TGAGGTTCCCTTTTCCTTTAGTGCTAG	2.65
TTAGCTATCGGGACTGGATTAGTGCTA	-0.279

Series 4 — observed: enzyme activity; mode: inhibitor; concentration: 0.5 µM; relative to: control
Compound: CN(C)S(=O)(=O)c1ccc2c(c1)/C(=C/c1cc3c([nH]1)CCCC3)C(=O)N2
target	remaining activity [%]
MAP3K20 (Homo sapiens, UniProt Q9NYL2)	99.4
Cyclin-dependent kinase 2, with cyclin E (CDK2, Homo sapiens, UniProt P24941)	85.5
CSNK1E (Homo sapiens, UniProt P49674)	104
MUSK (Homo sapiens, UniProt O15146)	82.8
CLK1 (Homo sapiens, UniProt P49759)	82.6
TEC (Homo sapiens, UniProt P42680)	116
TYRO3 (Homo sapiens, UniProt Q06418)	57.2
PRKCQ (Homo sapiens, UniProt Q04759)	112
PAK6 (Homo sapiens, UniProt Q9NQU5)	98.9
IGF1R (Homo sapiens, UniProt P08069)	89.5
PAK1 (Homo sapiens, UniProt Q13153)	96.1
SIK2 (Homo sapiens, UniProt Q9H0K1)	86.4
CSNK1D (Homo sapiens, UniProt P48730)	99.7
RPS6KA3 (Homo sapiens, UniProt P51812)	70.1
PRKCZ (Homo sapiens, UniProt Q05513)	98.9
JAK1 (Homo sapiens, UniProt P23458)	66.8
SRPK1 (Homo sapiens, UniProt Q96SB4)	63.8
